Experimental data pooled from the literature.
Each line is one published result; not all experiments were run side by side. ± marks the error that the study gave.
Cnr1: Cannabinoid receptor 1 (Cnr1, Mus musculus, UniProt P47746)
UniProt P47746, sequence (whole entry, looked up): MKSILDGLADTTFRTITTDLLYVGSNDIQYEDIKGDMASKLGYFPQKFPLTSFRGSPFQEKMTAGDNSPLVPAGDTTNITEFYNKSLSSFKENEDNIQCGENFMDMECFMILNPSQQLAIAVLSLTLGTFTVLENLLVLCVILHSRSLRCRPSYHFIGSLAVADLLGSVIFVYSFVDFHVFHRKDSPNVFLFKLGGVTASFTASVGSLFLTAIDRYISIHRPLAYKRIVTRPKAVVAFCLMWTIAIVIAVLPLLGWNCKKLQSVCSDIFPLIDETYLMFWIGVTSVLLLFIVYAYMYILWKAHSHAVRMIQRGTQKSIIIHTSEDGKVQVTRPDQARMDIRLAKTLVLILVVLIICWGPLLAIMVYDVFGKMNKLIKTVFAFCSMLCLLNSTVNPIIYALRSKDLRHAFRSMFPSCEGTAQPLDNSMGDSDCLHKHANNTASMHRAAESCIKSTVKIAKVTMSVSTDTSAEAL
Gamma-aminobutyric acid receptor subunit alpha-2/beta-1/gamma-2: Gamma-aminobutyric acid receptor subunit alpha-2/beta-1/gamma-2 (Homo sapiens, UniProt P18505+P18507+P47869)
UniProt P18507, sequence (whole entry, looked up): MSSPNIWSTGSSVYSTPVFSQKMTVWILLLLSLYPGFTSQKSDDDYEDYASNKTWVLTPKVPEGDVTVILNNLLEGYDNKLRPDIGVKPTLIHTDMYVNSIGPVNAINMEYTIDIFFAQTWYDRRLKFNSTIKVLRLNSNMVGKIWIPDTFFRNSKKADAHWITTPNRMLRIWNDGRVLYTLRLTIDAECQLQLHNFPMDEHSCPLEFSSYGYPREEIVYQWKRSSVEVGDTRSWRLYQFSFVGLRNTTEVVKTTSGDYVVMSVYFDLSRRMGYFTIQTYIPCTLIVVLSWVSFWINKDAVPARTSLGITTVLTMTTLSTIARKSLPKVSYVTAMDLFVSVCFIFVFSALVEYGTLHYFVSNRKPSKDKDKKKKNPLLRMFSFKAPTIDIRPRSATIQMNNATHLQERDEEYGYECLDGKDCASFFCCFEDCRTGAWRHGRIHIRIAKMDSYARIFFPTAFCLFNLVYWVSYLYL
UniProt P47869, sequence (whole entry, looked up): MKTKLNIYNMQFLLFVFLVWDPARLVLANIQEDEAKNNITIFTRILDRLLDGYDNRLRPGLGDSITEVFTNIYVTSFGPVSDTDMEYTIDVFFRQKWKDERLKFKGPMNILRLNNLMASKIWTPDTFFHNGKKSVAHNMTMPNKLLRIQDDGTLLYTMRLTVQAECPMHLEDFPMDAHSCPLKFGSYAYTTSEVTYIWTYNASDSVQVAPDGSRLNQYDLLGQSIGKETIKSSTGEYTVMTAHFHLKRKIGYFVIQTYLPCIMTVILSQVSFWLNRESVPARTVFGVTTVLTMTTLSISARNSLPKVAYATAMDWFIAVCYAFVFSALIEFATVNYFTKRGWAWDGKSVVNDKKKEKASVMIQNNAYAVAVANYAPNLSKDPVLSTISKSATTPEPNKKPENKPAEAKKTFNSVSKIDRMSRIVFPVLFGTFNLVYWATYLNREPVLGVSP
UniProt P18505, sequence (whole entry, looked up): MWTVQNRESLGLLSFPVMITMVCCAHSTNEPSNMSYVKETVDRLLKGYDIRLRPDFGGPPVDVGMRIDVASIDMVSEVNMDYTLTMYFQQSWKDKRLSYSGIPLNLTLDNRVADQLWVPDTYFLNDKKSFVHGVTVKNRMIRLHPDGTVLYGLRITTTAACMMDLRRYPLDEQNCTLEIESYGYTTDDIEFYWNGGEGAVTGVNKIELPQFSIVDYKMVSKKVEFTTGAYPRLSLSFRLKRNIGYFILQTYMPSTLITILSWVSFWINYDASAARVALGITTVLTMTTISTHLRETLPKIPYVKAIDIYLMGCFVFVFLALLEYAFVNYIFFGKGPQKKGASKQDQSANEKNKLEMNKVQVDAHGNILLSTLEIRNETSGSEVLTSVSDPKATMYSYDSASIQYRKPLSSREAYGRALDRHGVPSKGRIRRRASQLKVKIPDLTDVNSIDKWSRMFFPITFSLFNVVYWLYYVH
UniProt Q9QZN9, sequence (whole entry, looked up): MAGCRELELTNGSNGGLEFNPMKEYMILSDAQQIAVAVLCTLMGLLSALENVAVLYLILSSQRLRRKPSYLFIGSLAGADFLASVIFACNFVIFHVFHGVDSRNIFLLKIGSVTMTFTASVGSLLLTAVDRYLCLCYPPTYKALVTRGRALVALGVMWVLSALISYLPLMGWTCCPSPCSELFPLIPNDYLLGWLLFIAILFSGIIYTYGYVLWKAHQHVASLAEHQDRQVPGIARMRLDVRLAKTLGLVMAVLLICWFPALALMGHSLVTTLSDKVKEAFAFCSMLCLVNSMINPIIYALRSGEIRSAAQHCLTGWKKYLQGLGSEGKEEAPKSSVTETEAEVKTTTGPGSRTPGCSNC
UniProt P47870, sequence (whole entry, looked up): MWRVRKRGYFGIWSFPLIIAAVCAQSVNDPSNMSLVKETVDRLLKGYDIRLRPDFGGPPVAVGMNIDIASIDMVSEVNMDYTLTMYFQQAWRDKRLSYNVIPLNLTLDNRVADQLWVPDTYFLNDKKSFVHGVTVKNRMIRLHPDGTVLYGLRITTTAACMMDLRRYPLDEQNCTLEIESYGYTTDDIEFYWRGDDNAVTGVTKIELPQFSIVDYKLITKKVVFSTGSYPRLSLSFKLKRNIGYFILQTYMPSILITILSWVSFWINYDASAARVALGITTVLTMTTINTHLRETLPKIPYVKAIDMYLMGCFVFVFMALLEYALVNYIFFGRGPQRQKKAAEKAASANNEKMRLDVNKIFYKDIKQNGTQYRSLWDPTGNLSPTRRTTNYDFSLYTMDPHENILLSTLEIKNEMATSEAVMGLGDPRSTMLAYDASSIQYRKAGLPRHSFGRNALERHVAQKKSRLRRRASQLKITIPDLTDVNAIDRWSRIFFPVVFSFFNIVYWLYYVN
UniProt Q8NER1, sequence (whole entry, looked up): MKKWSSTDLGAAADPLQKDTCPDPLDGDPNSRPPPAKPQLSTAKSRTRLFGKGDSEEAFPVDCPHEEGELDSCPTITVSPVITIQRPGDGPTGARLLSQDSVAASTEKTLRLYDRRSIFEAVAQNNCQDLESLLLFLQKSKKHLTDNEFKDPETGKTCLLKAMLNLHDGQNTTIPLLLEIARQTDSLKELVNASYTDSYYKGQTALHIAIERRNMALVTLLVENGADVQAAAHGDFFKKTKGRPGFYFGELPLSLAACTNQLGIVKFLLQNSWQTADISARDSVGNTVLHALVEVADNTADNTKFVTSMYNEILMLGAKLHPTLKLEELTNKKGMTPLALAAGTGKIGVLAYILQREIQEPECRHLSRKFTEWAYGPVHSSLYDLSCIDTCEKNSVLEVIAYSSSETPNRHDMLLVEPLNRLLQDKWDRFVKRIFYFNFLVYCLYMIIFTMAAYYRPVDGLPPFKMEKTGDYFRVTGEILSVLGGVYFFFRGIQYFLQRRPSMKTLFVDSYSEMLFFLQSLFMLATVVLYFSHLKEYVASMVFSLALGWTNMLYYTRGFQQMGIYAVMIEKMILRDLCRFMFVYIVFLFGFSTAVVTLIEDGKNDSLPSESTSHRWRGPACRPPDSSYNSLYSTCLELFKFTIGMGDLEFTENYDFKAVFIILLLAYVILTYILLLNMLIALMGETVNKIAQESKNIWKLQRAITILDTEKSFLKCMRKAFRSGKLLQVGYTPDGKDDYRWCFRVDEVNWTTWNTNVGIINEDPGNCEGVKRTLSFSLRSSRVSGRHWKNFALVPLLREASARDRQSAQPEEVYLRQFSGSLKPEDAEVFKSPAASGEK
UniProt P33535, sequence (whole entry, looked up): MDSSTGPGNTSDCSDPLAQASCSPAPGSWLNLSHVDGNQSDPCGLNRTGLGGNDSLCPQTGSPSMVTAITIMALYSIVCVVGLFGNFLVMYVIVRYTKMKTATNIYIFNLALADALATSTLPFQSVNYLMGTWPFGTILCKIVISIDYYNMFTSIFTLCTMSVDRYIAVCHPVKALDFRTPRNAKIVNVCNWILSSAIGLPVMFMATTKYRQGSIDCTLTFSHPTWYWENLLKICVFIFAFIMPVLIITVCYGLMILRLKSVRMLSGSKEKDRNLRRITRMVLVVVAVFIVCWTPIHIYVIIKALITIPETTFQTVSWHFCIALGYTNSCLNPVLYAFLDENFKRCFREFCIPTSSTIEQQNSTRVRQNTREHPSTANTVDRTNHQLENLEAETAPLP
UniProt Q01959, sequence (whole entry, looked up): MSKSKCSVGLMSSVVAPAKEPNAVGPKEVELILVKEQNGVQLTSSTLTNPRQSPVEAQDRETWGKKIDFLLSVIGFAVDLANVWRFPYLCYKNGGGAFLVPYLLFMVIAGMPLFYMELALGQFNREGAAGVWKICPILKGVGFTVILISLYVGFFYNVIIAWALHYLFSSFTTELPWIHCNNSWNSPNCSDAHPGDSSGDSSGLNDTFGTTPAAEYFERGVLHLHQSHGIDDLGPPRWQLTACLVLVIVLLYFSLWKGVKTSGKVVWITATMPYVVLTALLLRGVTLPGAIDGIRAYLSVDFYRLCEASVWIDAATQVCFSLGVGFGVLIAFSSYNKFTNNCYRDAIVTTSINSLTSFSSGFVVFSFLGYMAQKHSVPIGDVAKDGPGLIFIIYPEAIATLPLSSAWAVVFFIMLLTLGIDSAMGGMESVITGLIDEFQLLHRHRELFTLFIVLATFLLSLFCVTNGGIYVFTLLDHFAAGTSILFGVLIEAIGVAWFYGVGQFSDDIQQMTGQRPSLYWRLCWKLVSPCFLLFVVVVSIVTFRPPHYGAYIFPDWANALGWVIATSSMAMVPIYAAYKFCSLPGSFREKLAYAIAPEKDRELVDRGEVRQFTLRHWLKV

SMILES = C[C@H](N)Cc1cccc(C(F)(F)F)c1; target or system = 5-hydroxytryptamine receptor 2B (Mus musculus, UniProt Q02152); test = Gq dissociation, agonist, BRET; setting = 60 min, 37 °C; endpoint = EC50; value = 18 nM
SMILES = CCCCn1cc(C(=O)c2cccc3ccccc23)c2ccccc21; target or system = Cnr1; test = GTPγS binding, agonist; setting = cell membranes; endpoint = EC50; value = 276 nM
SMILES = CCCCCCC(C)(C)c1ccc([C@@H]2C[C@H](O)CC[C@H]2CCCO)c(O)c1; target or system = Cannabinoid receptor 2 (Cnr2, Rattus norvegicus, UniProt Q9QZN9); test = cAMP level, agonist; setting = added: forskolin 10 µM; endpoint = EC50; value = 1.1 ± 0.1 nM
SMILES = CN[C@@](C)(C[18F])C(=O)O; target or system = MDA-MB-468 tumour model; test system = host not given, pancreas; setting = 30 min, tumour-bearing; endpoint = tracer uptake; value = 38 %ID/g
SMILES = CC(=O)[C@H]1CC[C@H]2[C@@H]3CC[C@H]4C[C@](C)(O)CC[C@]4(C)[C@H]3CC[C@]12C; target or system = GABA A receptor alpha-2/beta-2/gamma-2 (Homo sapiens, UniProt P18507+P47869+P47870); test = GABA current potentiation, positive modulator, two-electrode voltage clamp; test system = Xenopus laevis oocytes; setting = 30 s preincubation, added: GABA EC10; endpoint = EC50; value = 190 ± 70 nM
SMILES = CCCCCCC(C)(C)c1ccc([C@@H]2C[C@H](O)CC[C@H]2CCCO)c(O)c1; target or system = Cnr1; test = GTPγS binding, agonist; setting = cell membranes; endpoint = EC50; value = 7.5 nM
SMILES = CC1(C)C(C(=O)c2cn(CCCCCF)c3ccccc23)C1(C)C; target or system = Transient receptor potential cation channel subfamily V member 1 (TRPV1, Homo sapiens, UniProt Q8NER1); test = calcium signal, agonist, fluorescence; endpoint = EC50; value = 5300 nM
SMILES = CNC(C)C(=O)c1ccccc1 (stereo not drawn); target or system = Sodium-dependent dopamine transporter (SLC6A3, Homo sapiens, UniProt Q01959); test = [3H]dopamine release, releaser; test system = HEK293 expressing target; endpoint = EC50; value = 1570 ± 480 nM
SMILES = CC(=O)[C@H]1CC[C@H]2[C@@H]3CC[C@H]4C[C@H](O)CC[C@]4(C)[C@H]3CC[C@]12C; target or system = Gamma-aminobutyric acid receptor subunit alpha-2/beta-1/gamma-2; test = GABA current potentiation, positive modulator, two-electrode voltage clamp; test system = Xenopus laevis oocytes; setting = 30 s preincubation, added: GABA EC10; endpoint = EC50; value = 270 ± 200 nM
SMILES = C[C@]12CC[C@@H](O)C[C@@H]1CC[C@@H]1[C@@H]2CC[C@]2(C)[C@@H](C(=O)CO)CC[C@@H]12; target or system = Gabrb1/Gabrg2/Gabra1 (Rattus norvegicus, UniProt P15431+P18508+P62813, S325C); test = ion current, agonist, two-electrode voltage clamp; test system = Xenopus oocytes; setting = first activation phase; endpoint = EC50; value = 0.73 nM
SMILES = CN(C(=O)/C=C/c1ccoc1)[C@@H]1CC[C@@]2(O)[C@H]3Cc4cccc5c4[C@@]2(CCN3CC2CC2)[C@H]1O5; target or system = Mu-type opioid receptor (Oprm1, Rattus norvegicus, UniProt P33535); test = GTPγS binding, agonist; setting = cell membranes; endpoint = EC50; value = 215 nM
SMILES = C[C@@]1(O)CC[C@H]2[C@H](CC[C@@H]3[C@@H]2CC[C@]2(C)[C@@H](C(=O)Cn4cc(C#N)cn4)CC[C@@H]32)C1; target or system = Gamma-aminobutyric acid receptor subunit alpha-2/beta-1/gamma-2; test = GABA current potentiation, positive modulator, two-electrode voltage clamp; test system = Xenopus laevis oocytes; setting = 30 s preincubation, added: GABA EC10; endpoint = EC50; value = 180 ± 40 nM
